Published values pooled from the literature.
Numbered parts are unrelated; each lists some results of a single study.
UniProt Q9UF33, sequence (whole entry, looked up): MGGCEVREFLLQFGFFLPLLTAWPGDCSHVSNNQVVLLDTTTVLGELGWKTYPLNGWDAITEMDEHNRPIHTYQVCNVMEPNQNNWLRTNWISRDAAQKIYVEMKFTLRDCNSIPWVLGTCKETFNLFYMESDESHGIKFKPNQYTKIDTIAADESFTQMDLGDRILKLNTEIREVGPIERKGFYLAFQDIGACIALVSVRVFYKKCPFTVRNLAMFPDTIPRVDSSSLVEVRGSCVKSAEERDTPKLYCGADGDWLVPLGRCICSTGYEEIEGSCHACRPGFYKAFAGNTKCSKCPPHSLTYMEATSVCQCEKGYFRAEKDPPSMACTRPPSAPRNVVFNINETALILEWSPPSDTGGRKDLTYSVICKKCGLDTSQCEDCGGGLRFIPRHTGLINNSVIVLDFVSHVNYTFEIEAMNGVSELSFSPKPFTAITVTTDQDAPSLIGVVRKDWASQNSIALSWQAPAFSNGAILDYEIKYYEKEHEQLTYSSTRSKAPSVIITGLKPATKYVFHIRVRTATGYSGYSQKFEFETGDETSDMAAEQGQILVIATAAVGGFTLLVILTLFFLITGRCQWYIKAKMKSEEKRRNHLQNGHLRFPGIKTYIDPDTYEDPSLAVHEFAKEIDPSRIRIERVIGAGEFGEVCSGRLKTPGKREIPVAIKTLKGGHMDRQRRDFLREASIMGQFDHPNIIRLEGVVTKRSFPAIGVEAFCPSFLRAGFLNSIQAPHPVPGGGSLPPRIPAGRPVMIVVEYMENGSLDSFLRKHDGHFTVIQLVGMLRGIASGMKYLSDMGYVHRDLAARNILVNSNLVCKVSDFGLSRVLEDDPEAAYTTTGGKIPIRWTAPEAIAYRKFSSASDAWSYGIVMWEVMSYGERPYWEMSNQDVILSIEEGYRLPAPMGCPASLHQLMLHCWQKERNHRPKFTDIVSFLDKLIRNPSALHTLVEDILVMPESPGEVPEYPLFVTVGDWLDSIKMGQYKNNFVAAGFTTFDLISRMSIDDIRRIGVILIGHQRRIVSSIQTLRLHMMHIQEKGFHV
UniProt Q00536, sequence (whole entry, looked up): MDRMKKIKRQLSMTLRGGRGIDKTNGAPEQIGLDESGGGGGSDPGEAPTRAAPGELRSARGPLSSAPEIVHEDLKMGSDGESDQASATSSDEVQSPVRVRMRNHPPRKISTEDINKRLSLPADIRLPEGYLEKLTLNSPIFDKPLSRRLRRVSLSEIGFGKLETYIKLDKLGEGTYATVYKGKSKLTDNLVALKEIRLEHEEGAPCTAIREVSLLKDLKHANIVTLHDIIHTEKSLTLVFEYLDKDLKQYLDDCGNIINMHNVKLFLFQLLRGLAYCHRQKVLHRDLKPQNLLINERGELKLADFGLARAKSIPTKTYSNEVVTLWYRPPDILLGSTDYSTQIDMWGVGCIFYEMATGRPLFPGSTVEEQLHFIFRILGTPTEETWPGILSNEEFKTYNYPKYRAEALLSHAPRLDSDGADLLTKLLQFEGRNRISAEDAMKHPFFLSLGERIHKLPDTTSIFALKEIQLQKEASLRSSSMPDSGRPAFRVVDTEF
UniProt Q13164, sequence (whole entry, looked up): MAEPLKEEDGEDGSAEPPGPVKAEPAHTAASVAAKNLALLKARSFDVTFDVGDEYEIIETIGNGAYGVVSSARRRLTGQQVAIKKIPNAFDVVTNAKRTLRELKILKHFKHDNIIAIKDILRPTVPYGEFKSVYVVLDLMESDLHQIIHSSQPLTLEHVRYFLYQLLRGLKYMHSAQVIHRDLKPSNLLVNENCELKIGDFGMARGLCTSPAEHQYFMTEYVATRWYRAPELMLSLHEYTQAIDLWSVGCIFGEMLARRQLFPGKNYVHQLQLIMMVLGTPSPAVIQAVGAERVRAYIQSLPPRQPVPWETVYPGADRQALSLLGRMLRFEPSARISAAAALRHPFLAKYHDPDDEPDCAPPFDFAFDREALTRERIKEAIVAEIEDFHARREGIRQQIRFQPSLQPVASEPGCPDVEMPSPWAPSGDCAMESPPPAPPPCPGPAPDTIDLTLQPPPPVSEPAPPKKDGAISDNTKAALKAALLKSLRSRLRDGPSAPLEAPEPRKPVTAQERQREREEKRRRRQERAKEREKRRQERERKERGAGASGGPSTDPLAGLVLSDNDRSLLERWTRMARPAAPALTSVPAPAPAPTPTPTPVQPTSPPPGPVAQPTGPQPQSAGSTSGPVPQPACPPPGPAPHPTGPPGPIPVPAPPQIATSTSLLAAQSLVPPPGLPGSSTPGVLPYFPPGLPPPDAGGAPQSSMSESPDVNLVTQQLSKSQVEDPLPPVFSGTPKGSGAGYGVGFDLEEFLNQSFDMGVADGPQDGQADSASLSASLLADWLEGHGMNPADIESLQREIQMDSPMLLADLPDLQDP
UniProt Q06418, sequence (whole entry, looked up): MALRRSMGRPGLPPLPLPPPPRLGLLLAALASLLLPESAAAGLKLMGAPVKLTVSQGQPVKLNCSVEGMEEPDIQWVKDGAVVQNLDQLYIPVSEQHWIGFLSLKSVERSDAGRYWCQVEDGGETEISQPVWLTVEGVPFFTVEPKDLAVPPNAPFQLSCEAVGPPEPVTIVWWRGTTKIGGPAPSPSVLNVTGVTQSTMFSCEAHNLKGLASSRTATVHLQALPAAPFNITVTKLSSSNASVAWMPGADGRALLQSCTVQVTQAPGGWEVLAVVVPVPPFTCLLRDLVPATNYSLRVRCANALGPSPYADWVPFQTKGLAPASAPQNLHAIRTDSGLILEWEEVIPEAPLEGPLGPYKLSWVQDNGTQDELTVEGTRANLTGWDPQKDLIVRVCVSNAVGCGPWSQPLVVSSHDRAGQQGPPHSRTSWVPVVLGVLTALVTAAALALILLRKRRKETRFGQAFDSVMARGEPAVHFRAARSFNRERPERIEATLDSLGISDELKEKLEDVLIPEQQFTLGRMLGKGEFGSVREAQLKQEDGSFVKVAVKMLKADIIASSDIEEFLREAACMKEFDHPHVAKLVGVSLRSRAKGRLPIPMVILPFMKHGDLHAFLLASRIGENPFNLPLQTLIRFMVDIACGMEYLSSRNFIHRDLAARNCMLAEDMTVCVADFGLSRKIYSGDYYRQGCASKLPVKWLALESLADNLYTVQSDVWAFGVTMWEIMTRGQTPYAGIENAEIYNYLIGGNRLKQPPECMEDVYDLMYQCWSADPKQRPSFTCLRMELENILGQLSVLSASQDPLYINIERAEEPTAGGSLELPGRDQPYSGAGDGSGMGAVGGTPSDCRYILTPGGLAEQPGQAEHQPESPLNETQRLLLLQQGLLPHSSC
UniProt Q15139, sequence (whole entry, looked up): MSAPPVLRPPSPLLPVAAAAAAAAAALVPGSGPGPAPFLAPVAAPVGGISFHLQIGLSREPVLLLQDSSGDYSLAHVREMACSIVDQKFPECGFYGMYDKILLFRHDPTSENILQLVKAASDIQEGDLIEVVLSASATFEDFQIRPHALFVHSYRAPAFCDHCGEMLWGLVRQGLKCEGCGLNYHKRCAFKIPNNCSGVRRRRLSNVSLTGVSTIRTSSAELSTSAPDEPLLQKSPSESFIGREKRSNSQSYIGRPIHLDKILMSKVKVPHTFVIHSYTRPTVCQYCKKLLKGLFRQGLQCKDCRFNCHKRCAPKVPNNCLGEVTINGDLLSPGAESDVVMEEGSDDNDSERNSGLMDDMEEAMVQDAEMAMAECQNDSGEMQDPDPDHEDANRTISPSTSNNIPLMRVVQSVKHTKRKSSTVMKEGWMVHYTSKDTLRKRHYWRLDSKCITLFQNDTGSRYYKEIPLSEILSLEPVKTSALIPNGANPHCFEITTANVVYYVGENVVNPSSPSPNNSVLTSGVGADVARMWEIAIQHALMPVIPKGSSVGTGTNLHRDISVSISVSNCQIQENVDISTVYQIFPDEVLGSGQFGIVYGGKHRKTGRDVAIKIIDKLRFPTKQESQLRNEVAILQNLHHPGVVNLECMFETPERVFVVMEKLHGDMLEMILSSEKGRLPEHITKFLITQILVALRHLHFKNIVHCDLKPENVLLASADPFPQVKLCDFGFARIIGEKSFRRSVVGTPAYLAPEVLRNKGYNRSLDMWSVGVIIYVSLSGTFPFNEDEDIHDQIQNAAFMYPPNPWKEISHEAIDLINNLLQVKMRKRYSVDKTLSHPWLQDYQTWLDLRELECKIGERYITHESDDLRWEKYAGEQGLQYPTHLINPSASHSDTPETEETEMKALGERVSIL
UniProt Q9NQU5, sequence (whole entry, looked up): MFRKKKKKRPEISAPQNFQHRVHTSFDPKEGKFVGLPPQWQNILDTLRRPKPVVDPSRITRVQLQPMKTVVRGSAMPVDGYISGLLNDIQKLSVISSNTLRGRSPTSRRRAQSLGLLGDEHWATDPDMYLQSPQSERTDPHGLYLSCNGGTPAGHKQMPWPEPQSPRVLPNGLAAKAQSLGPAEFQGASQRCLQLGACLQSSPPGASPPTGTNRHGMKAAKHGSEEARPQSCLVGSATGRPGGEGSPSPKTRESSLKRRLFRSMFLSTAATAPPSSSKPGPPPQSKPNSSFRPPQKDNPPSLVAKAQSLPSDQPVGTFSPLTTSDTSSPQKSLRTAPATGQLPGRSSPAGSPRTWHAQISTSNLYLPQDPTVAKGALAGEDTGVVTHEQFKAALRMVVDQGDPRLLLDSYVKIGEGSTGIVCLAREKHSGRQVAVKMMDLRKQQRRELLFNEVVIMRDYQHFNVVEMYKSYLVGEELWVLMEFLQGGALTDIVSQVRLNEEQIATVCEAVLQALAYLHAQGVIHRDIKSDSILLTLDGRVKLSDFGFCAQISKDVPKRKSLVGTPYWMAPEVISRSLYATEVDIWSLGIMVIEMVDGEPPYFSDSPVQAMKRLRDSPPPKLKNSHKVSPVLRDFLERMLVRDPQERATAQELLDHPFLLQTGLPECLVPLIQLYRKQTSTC

Sample 1 — observed: cell-free assay; method: competition with immobilised ligand; tested at: 1 µM
Compound: O=C1CCc2cc(Nc3cc(OC4CCOCC4)c([N+](=O)[O-])cc3Cl)ccc2N1
| target | remaining binding |
| --- | --- |
| Serine/threonine-protein kinase D2 (PRKD2, Homo sapiens, UniProt Q9BZL6) | 85% |
| Fibroblast growth factor receptor 3 (FGFR3, Homo sapiens, UniProt P22607, G697C) | 79% |
| Mitogen-activated protein kinase 13 (MAPK13, Homo sapiens, UniProt O15264) | 100% |
| Ephrin type-A receptor 3 (EPHA3, Homo sapiens, UniProt P29320) | 83% |
| Serine/threonine-protein kinase PAK 3 (PAK3, Homo sapiens, UniProt O75914) | 100% |
| Mitogen-activated protein kinase kinase kinase 9 (MAP3K9, Homo sapiens, UniProt P80192) | 90% |
| Ribosomal protein S6 kinase alpha-5, N-terminal kinase domain (RPS6KA5, Homo sapiens, UniProt O75582) | 86% |
| Mitogen-activated protein kinase kinase kinase 10 (MAP3K10, Homo sapiens, UniProt Q02779) | 94% |
| Testis-specific serine/threonine-protein kinase 3 (TSSK3, Homo sapiens, UniProt Q96PN8) | 100% |
| Phosphorylase b kinase gamma catalytic chain, skeletal muscle/heart isoform (PHKG1, Homo sapiens, UniProt Q16816) | 100% |
| Serine/threonine-protein kinase OSR1 (OXSR1, Homo sapiens, UniProt O95747) | 83% |
| Proto-oncogene tyrosine-protein kinase receptor Ret (RET, Homo sapiens, UniProt P07949, V804L) | 91% |
| Serine/threonine-protein kinase NIM1 (NIM1K, Homo sapiens, UniProt Q8IY84) | 100% |
| Rhodopsin kinase GRK7 (GRK7, Homo sapiens, UniProt Q8WTQ7) | 100% |
| Mitogen-activated protein kinase 7 (MAPK7, Homo sapiens, UniProt Q13164) | 100% |
| Myosin-IIIb (MYO3B, Homo sapiens, UniProt Q8WXR4) | 97% |
| Serine/threonine-protein kinase D1 (PRKD1, Homo sapiens, UniProt Q15139) | 87% |
| Tyrosine-protein kinase ABL1, phosphorylated (ABL1, Homo sapiens, UniProt P00519, F317L) | 88% |
| 3-phosphoinositide-dependent protein kinase 1 (PDPK1, Homo sapiens, UniProt O15530) | 100% |
| Cyclin-dependent kinase 16 (CDK16, Homo sapiens, UniProt Q00536) | 88% |
| Ribosomal protein S6 kinase alpha-1, C-terminal kinase domain (RPS6KA1, Homo sapiens, UniProt Q15418) | 100% |
| Serine/threonine-protein kinase Nek9 (NEK9, Homo sapiens, UniProt Q8TD19) | 80% |
| Serine/threonine-protein kinase ULK3 (ULK3, Homo sapiens, UniProt Q6PHR2) | 100% |
| Serine/threonine-protein kinase RIO2 (RIOK2, Homo sapiens, UniProt Q9BVS4) | 89% |
| Ephrin type-A receptor 6 (EPHA6, Homo sapiens, UniProt Q9UF33) | 80% |

Sample 2 — observed: enzyme activity; mode: inhibitor; tested at: 0.5 µM; baseline: control
Structure (SMILES): CN([C@@H](Cc1ccc(OS(=O)(=O)c2cccc3cnccc23)cc1)C(=O)N1CCN(c2ccccc2)CC1)S(=O)(=O)c1cccc2cnccc12
| target | remaining activity [%] |
| --- | --- |
| Protein kinase C zeta type (PRKCZ, Homo sapiens, UniProt Q05513) | 101 |
| Ephrin type-A receptor 2 (EPHA2, Homo sapiens, UniProt P29317) | 101 |
| Calcium/calmodulin-dependent protein kinase kinase 1 (CAMKK1, Homo sapiens, UniProt Q8N5S9) | 108 |
| Tyrosine-protein kinase Tec (TEC, Homo sapiens, UniProt P42680) | 98.9 |
| Ephrin type-A receptor 6 (EPHA6, Homo sapiens, UniProt Q9UF33) | 94.9 |
| Serine/threonine-protein kinase PAK 1 (PAK1, Homo sapiens, UniProt Q13153) | 95.7 |
| Serine/threonine-protein kinase PAK 6 (PAK6, Homo sapiens, UniProt Q9NQU5) | 102 |
| Protein kinase C theta type (PRKCQ, Homo sapiens, UniProt Q04759) | 108 |
| Casein kinase I isoform epsilon (CSNK1E, Homo sapiens, UniProt P49674) | 103 |
| Tyrosine-protein kinase receptor TYRO3 (TYRO3, Homo sapiens, UniProt Q06418) | 101 |
| SRSF protein kinase 1 (SRPK1, Homo sapiens, UniProt Q96SB4) | 104 |
| Vascular endothelial growth factor receptor 1 (FLT1, Homo sapiens, UniProt P17948) | 86.5 |

Sample 3 — cell line: A-375; tested at: 100 µM; time: 36 h
| Compound | viability [%] |
| --- | --- |
| CC1CCc2c(N3CCC(O)CC3)c(F)cc3c(=O)c(C(=O)O)cn1c23 (centres unmarked) | 87.7 |
| COC1=C(OC)C(=O)C(C/C=C(\C)CC/C=C(\C)CC/C=C(\C)CC/C=C(\C)CC/C=C(\C)CC/C=C(\C)CC/C=C(\C)CC/C=C(\C)CC/C=C(\C)CCC=C(C)C)=C(C)C1=O | 94.6 |
| CNCCCC1c2ccccc2C=Cc2ccccc21 | -2.6 |
| Cc1cc2nc3c(=O)[nH]c(=O)nc-3n(C[C@H](O)[C@H](O)[C@H](O)COP(=O)(O)O)c2cc1C | 224 |
| Cc1ccc([C@@H]2O[C@H](CO)[C@@H](O)[C@H](O)[C@H]2O)cc1Cc1ccc(-c2ccc(F)cc2)s1 | 1.05 |
| O=C(/C=C/c1ccc(O)cc1)c1ccc(O)cc1O | 43.1 |
| CC(=O)c1ccc(S(=O)(=O)NC(=O)NC2CCCCC2)cc1 | 111 |
| COc1ccc2cc1Oc1ccc(cc1)C[C@H]1c3cc(c(OC)cc3CCN1C)Oc1c(OC)c(OC)cc3c1[C@H](C2)N(C)CC3 | 0.445 |
| CCCCC1C(=O)N(c2ccccc2)N(c2ccccc2)C1=O | 85.2 |
| CC1(C)O[C@@H]2C[C@H]3[C@@H]4CCC5=CC(=O)C=C[C@]5(C)[C@@]4(F)[C@@H](O)C[C@]3(C)[C@]2(C(=O)CO)O1 | 93.8 |
| CCOC(=O)C1=C(C)NC(C)=C(C(=O)OC)C1c1cccc([N+](=O)[O-])c1 (centres unmarked) | 2.48 |
| CCC1(C)CC(=O)NC1=O (centres unmarked) | 116 |
| C[C@]12C=CC(=O)C=C1CC[C@H]1[C@@H]3C[C@@H](O)[C@](O)(C(=O)CO)[C@@]3(C)C[C@H](O)[C@@]12F | 104 |
| CN1CCC[C@@H]1Cc1c[nH]c2ccc(CCS(=O)(=O)c3ccccc3)cc12 | 95.5 |
| COc1cccc(N(C)C(=S)Oc2ccc3c(c2)CCCC3)n1 | 86.7 |
| CC(C(=O)O)c1ccc2c(c1)CC(=O)c1ccccc1S2 (centres unmarked) | 98.1 |
| C=CC[N+]1([C@H]2C[C@H]3[C@@H]4CC[C@H]5C[C@H](O)[C@@H](N6CCOCC6)C[C@]5(C)[C@H]4CC[C@]3(C)[C@H]2OC(C)=O)CCCC1 | 52.2 |
| O=S(=O)(O)c1cc(O)ccc1O | 116 |

Sample 4 — species: human; medium: microsomes or S9; tested at: 2 µM; time: 0.5 h
| SMILES | remaining compound [%] |
| --- | --- |
| CCN(CC)S(=O)(=O)c1ccc(S(=O)(=O)NCc2cccs2)cc1 | 13.8 |
| COc1ccc(/N=C2\C(N3CCCCC3)C3(CCCCC3)C(=O)N2c2ccc(Cl)cc2)cc1 (centres unmarked) | 57.5 |
| Cc1cc(C)cc(N(C)S(=O)(=O)c2ccsc2-c2nc(-c3cccnc3)no2)c1 | 36.1 |
| c1ccc(Cn2ncc3/c(=N/c4cccc5ccccc45)nc[nH]c32)cc1 | 78.7 |
| Cc1cc(Cl)cc(C(=O)c2c(C(C)C)c(=O)[nH]c(=O)n2Cc2cc(N)nc(Cl)c2)c1 | 23.9 |
| CC1CCc2c(sc3ncnc(NC(c4nnc5n4CCC5)C(C)C)c23)C1 (centres unmarked) | 11.2 |
| CCOC(=O)CCS(=O)(=O)c1n[nH]c(NC(C)=O)n1 | 89.5 |
| Nc1c(C(=O)c2ccc[nH]2)cnn1-c1ccc(F)cc1 | 12.8 |
| O=C(O)c1csc(CNC(=O)c2cc(N3CCNC3=O)ccc2Cl)n1 | > 100 |
| CC(C)COC(C)C(=O)NCCNC(=O)C(C)C (centres unmarked) | 88.7 |
| CCN1CCN(CCNC(=O)c2ccc3c(c2)N(Cc2cccc(C)c2)C(=O)c2ccccc2S3(=O)=O)CC1 | 11.5 |
| Cc1n[nH]c(C)c1Sc1ccccc1-n1cnnc1 | 84.9 |
| Fc1ccc(-c2ccc3ccnc(N4CCOCC4)c3c2)cc1Cl | 14.6 |
| Cc1cc(C)nc(NC(N)=Nc2ccc(CC(=O)OC(C)C)cc2)n1 | > 100 |
| COC(=O)c1ccccc1C1CCN(C(=O)OC(C)(C)C)CC1 | 6.38 |
| [O-][S+](Cc1ccn(Cc2ccccc2Cl)n1)c1nc2cc(Cl)ccc2[nH]1 (centres unmarked) | 21.9 |
